{"data": "Results pooled from the literature", "note": "Every numbered part comes from another study and shows a few of its results, in no order."}
{"data": "Block 1", "target": "Transcription factor SOX-2, HMG box (SOX2, Homo sapiens, UniProt P48431, residues 19-118)", "technique": "protein-binding microarray", "form": "double-stranded DNA, one strand shown", "medium": "in vitro", "tested at": "not given", "notes": "k-mer, scored over probes, only values ≥0.25", "direction": "higher = stronger binding", "UniProt P48431, sequence (19-118, looked up)": "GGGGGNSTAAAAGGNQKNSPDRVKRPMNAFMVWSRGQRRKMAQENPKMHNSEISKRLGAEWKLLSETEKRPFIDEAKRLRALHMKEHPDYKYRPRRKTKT"}
{"Sequence": "ATTCAAT", "E-score": 0.456}
{"Sequence": "ATAATCG", "E-score": 0.275}
{"Sequence": "ATTGTAC", "E-score": 0.401}
{"Sequence": "CTTTTCA", "E-score": 0.331}
{"Sequence": "ATTGTGC", "E-score": 0.417}
{"Sequence": "ATTAACA", "E-score": 0.262}
{"Sequence": "GAGACAA", "E-score": 0.268}
{"Sequence": "AGTGAAT", "E-score": 0.368}
{"data": "Block 2", "target": "RNA binding protein fox-1 homolog 2, RRM domain, GST-SBP tag (RBFOX2, Homo sapiens, UniProt O43251-10, residues 100-194)", "technique": "RNA Bind-n-Seq", "form": "RNA", "medium": "in vitro", "tested at": "365 nM", "notes": "natural RNA segment, single round, ends assumed", "baseline": "no-protein control", "direction": "higher = stronger binding", "shared flanks, not repeated": "GGGAGUUCUACAGUCCGACGAUC … UGGAAUUCUCGGGUGCCAA", "Residues (chain)": "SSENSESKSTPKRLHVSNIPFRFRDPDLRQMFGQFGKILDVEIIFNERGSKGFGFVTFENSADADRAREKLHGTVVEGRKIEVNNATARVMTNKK"}
{"Sequence": "UCCUUGCCAGCACCUCUUUCUCUGCCCAAUUGAGGGGAACAAAAGGGUGUUCACAGAUGGAGCGAGCUUGCAGCCGCGUGGCUGUGCUGCUCUGUGAGAAGGCGUGCCAG", "RBNS enrichment (R)": 1.03}
{"Sequence": "GAUAAACAACAAGGUGGUGUGAUCUUAAUAUAUUUGAAAAAAACUUCAUUCUCGUGAGUCAUUUAAAUGUGUACAAUGUACACACUGGUACUUAGAGUUUCUGUUUGAUU", "RBNS enrichment (R)": 0.625}
{"Sequence": "GUGGAAGGUCAUUCCUGAGAAGUGGGGGCUUGUUUUAUGAAACCUUAAAGGCCAAACGGACUGUCCCAUUUUGGGGAUCAGGACAUCCCUGUCCUUAUCUCCUGUCAUAG", "RBNS enrichment (R)": 0.311}
{"Sequence": "AUUGAAAUAAAACUCAAACCACACUGCGGUUGUUGUCUUAAUGAUUAAAUGUUCCGUUUCUAGCUGGAUGGUCUUUGCUACAGAGUAUUCGAUUUCUUUUUAGUAGACGU", "RBNS enrichment (R)": 0.425}
{"Sequence": "CAGGAAUUUUAUCAGGAUACUUAUGGGCAACAGUGGAAGUAGACAAGUAAGGGCUUGAAAAUGAUACUGGCAAGAUACGAUUGGCUCUAGAUCUACAUUCUUCAAAAAAA", "RBNS enrichment (R)": 0.528}
{"Sequence": "AUAUCAUUUUAAAAUGUCUUGGUCUUCUACUGCCUUGAAAAAUGACAAUUGUGAACAUGAUAGUUAAACUACCACUUUUUUUAACCAUUAUUAUGCAAAAUUUAGAAGAA", "RBNS enrichment (R)": 0.41}
{"Sequence": "UGAAGAGAAAUGAGACGUGAUUAUACUACUUUUUCAAUUGCAGGUUUAAGGAGUUCAGAUUUAAUGACCAAAGUCAUACAGAUCAUGGAAUCUGUCGUCGUCUUAUACAG", "RBNS enrichment (R)": 0.284}
{"Sequence": "AGAAAACUUUUUAGAGAAAAACUAUUUAAAACUGUCAGAUCCUGACCAGCAAGCCCCCCCCCAGCCCCCCUUCCAAGUGACUCCGUGCCUUGAGUGUGUCUGCGUGUUUA", "RBNS enrichment (R)": 0.828}
{"data": "Block 3", "target": "Phosphate system positive regulatory protein PHO4, full length, GST-tagged (PHO4, Saccharomyces cerevisiae, UniProt P07270, residues 1-312)", "technique": "competition protein-binding microarray", "form": "double-stranded DNA, one strand shown", "medium": "in vitro", "tested at": "2 µM", "notes": "whole 60-bp probe, lowest competitor level", "with": "Cbf1 competitor, 0.05 µM", "direction": "higher = stronger binding", "shared flanks, not repeated": "… GTCTTGATTCGCTTGACGCTGCTG", "Target sequence (chain)": "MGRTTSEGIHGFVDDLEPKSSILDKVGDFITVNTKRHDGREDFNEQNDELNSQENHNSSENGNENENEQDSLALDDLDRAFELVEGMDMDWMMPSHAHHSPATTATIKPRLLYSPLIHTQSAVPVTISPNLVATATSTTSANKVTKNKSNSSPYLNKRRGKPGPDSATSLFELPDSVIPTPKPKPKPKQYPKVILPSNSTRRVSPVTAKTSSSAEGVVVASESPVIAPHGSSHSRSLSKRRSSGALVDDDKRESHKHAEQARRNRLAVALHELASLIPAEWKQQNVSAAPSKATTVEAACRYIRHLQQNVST"}
{"Sequence": "TACATCTACCGCTGAAACGTGGATTCAAGGAACAGT", "fluorescence intensity [a.u.]": 12700}
{"Sequence": "TGCGCAACAACTTGCCTTGTGGGTGTATGTCTAGAA", "fluorescence intensity [a.u.]": 6180}
{"Sequence": "CTTTATGAGTACCGTCACGTTTCTTGTTGAAGATAA", "fluorescence intensity [a.u.]": 12800}
{"Sequence": "CGTCCTAGCGATTGAACAGTGGGTGCCATGAGGAAG", "fluorescence intensity [a.u.]": 6320}
{"Sequence": "CCTTTTCTTCTTGCGTACGTGCCGATCAATGCGTCG", "fluorescence intensity [a.u.]": 6790}
{"Sequence": "ATATCCGGTATTTTGCCCGTGATGGTTGGTAACTTC", "fluorescence intensity [a.u.]": 5300}
{"Sequence": "CTAACGAAGGTTTGGGGAGTGGGTGACAAGCCAAGT", "fluorescence intensity [a.u.]": 4670}
{"Sequence": "GTCTTGTCTCATTGCAGTGTGGGTGTCCCCACTTCA", "fluorescence intensity [a.u.]": 5770}
{"data": "Further values, each from its own experiment"}
{"Molecule": "EKAAWGVAL", "target": "HLA class I histocompatibility antigen, A alpha chain, allele A*80:01 (Homo sapiens, UniProt P04439)", "assay": "peptide-MHC binding", "test system": "peptide", "setting": "concentration not given", "endpoint": "binding", "value": "inactive"}
{"note": "Repeated from above (block 1):"}
{"Sequence": "GAGACAA", "E-score": 0.268}
{"Sequence": "ATTAACA", "E-score": 0.262}
